Published values gathered from unrelated publications.
Compare with care: the assays were run in different laboratories. ± gives the spread as reported. ≈ marks a conversion by molar mass, not a printed value.

| SMILES | tested on | assay | system | setting | scale | measurement | result |
| --- | --- | --- | --- | --- | --- | --- | --- |
| Cc1ncsc1-c1ccc(C(C)NC(=O)C2CC(O)CN2C(=O)C(NC(=O)CCCCCCCCCCN2CCCC(Nc3ncc(Cl)c(Nc4ccccc4S(=O)(=O)C(C)C)n3)C2)C(C)(C)C)cc1 (stereo not shown) | 22Rv1 | RNA-seq, measured: ZNF514 mRNA |  | concentration not given | baseline: DMSO | log2 fold change | -2.1 |
| C=CC(=O)Nc1cccc(Cn2ncc3cnc(Nc4cnn(CCOC)c4)nc32)c1 | PIM2 human | binding, KINOMEscan |  | 100 nM | lower = stronger binding | percent of control | 100% |
| COc1cc(O)ccc1CCC(c1ccc(O)cc1)c1cc2c(c(C)c1O)OC(c1ccc(O)cc1)CC2 (mixture of isomers) |  | measured: RvE3 | human whole blood | 3 µM, added: Escherichia coli |  | amount | 39 ± 1 pg/mL blood |
| C=CC(=O)N1[C@H](c2ccc3c(c2)OCO3)c2[nH]c3ccccc3c2C[C@@H]1C(=O)N1CCN(C)CC1 | human cyclin E1 N112C-3xFLAG:CDK2 | co-IP with TMT proteomics, measured: TXN |  | concentration not given, P10599 | baseline: wild type DMSO | relative co-enrichment | 75% |
| CN1CCCNC(=O)c2cccc(c2)C(=O)NCCCN(C)CCCNc2cccc3c2C(=O)c2cccc(c2C3=O)NCCC1 | SAS | RNA-Seq, measured: PLCXD2 mRNA |  | 1 µM, 6 h | baseline: untreated cells | log2 fold change | 1.07 |
| C=C(NC(=O)c1csc(-c2nc3c(cc2O)-c2nc(cs2)C(=O)NC(C(C)O)C(=O)NC(=C(C)OC)c2nc(cs2)C(=O)NC2c4nc(cs4)C(=O)NC(COC(=O)c4c5c6c(cccc6n4O)COC(=O)C(OC4CC(C)(O)C(N(C)C)C(C)O4)C2OC5)c2nc-3cs2)n1)C(N)=O (stereo not shown) | Enterococcus faecalis | agar dilution | vancomycin-intermediate |  |  | MIC90 | 0.0312 µg/mL (≈ 0.0217 µM) |
| COC1CN([C@H]2CC[C@H]([C@@]3(C)Oc4c(Cl)cc(C(=O)NCc5c(SC)cc(C)[nH]c5=O)c(C)c4O3)CC2)C1 |  | RNA-seq, measured: SORBS1 | human, whole blood | dose not given, 24 h | baseline: pretreatment baseline | log2 fold change | 1.59 |
| Nc1ncc(-c2cc(-c3cnn(CC(F)(F)F)c3)ncc2F)nc1C(=O)NC1CNCC(F)C1 (stereo not shown) | SRC | KINOMEscan |  | 1 µM | baseline: DMSO control | remaining binding | 96% |
| O=C(N/N=C/c1cc[n+](CC2CC2)c2ccccc12)c1cncc(C(=O)N/N=C/c2cc[n+](CC3CC3)c3ccccc23)n1 | telomeric G4 DNA hybrid-2 | FRET melting |  | 1 µM, DNA 0.2 µM, added: duplex DNA competitor 10 µM |  | ΔTm | 23.5 ± 0.3 °C |
| N=C(N)NCCC[C@@H]1NC(=O)[C@H](CCCNC(=N)N)NC(=O)[C@@H](C(c2ccccc2)c2ccccc2)NC(=O)[C@H](Cc2c[nH]c3ccccc23)NC(=O)[C@@H](C(c2ccccc2)c2ccccc2)NC(=O)[C@@H](CCCNC(=N)N)NC(=O)[C@@H](CCCNC(=N)N)NC1=O | Aspergillus fumigatus |  | Af 293 | MIC, 12 h |  | reduction of viable cells | > 65% |
| O=C(N/N=C/c1cc[n+](CC2CC2)c2ccccc12)c1cccc(C(=O)N/N=C/c2cc[n+](CC3CC3)c3ccccc23)n1 | telomeric G4 DNA hybrid-2 | FRET melting |  | 1 µM, DNA 0.2 µM |  | ΔTm | 28.7 ± 0.7 °C |
| Cn1ncc2cc(-c3cncc(Cl)c3N3CCC4(CCNC4=O)CC3)ccc21 | LS174T | gene expression, microarray, measured: PLD1 mRNA |  | concentration not given, 4 h | baseline: untreated cells | log2 fold change | -1.42 |
| CC(C)(C)c1cc(-c2ccc3cccnc3n2)nc(-c2ccc3cccnc3n2)c1.[Cl-].[Cl-].[Ru+2].c1cnc2c(c1)ccc1cccnc12 | B16-F10 |  |  | visible light 100 J/cm2 | baseline: dark EC50 over light EC50 | phototherapeutic index | 2 |
| C[n+]1cccc2cc(/C=N/NC(=O)c3cc(C(=O)N/N=C/c4ccc5c(ccc[n+]5C)c4)ncn3)ccc21 | telomeric G4 DNA hybrid-2 | FRET melting |  | 1 µM, DNA 0.2 µM |  | ΔTm | 4.2 ± 0.2 °C |
| CC(C)c1ccc(N(C)c2ccc3c(c2)OCC[C@H]3CNc2cnccc2C(=O)O)cc1 | NCI-H1666 | cell growth or viability, ATP luminescence |  | 7 days |  | IC50 | 1.17 nM |
| C[n+]1ccc(/C=N/NC(=O)c2cccc(C(=O)N/N=C/c3cc[n+](C)c4ccccc34)n2)c2ccccc21 | telomeric G4 DNA hybrid-2 | FRET melting |  | 1 µM, DNA 0.2 µM |  | ΔTm | 30.6 ± 0.7 °C |
| CC(=O)[O-].O.O.[O-]c1ccc(Br)cc1C=NCCN1CCOCC1.[Zn+2] |  | FRAP |  | 160 µM |  | ferric reducing power | 35.6% |
| O=C(N/N=C/c1cc[n+](CC2CC2)c2ccccc12)c1ccc2ccc3ccc(C(=O)N/N=C/c4cc[n+](CC5CC5)c5ccccc45)nc3c2n1 | telomeric G4 DNA hybrid-2 | FRET melting |  | 1 µM, DNA 0.2 µM |  | ΔTm | 29.1 ± 0.7 °C |
| c1ccc(-c2n[nH]cc2-c2ccnc3ccccc23)nc1 | DUN1 (Candida albicans) | kinase binding, MIB/MS competition | Candida albicans lysate | 10 µM | baseline: DMSO | log2 fold change | -0.07 |
| O=C(N/N=C/c1ccc(C[n+]2ccccc2)cc1)C(=O)N/N=C/c1ccc(C[n+]2ccccc2)cc1 | telomeric G4 DNA hybrid-2 | FRET melting |  | 1 µM, DNA 0.2 µM, added: duplex DNA competitor 10 µM |  | ΔTm | 2.1 ± 1.6 °C |
| COc1ccc(C(=O)CCc2cc(C(CCc3ccc(O)cc3OC)c3ccc(O)cc3)c(O)cc2OC)cc1 (racemic) |  |  | human blood | 10 µM, added: A23187 |  | LTB4 level | 2650 ± 1300 pg/mL |
| O=C(N/N=C/c1ccc(C[n+]2ccccc2)cc1)c1cccc(C(=O)N/N=C/c2ccc(C[n+]3ccccc3)cc2)c1 | telomeric G4 DNA hybrid-2 | FRET melting |  | 1 µM, DNA 0.2 µM |  | ΔTm | 3.5 ± 1.3 °C |
| Cc1ccncc1.[Cl-].[Cl-].[Ru+2].c1cc(-c2ccc3cccnc3n2)nc(-c2ccc3cccnc3n2)c1.c1ccc2cc3nc4c5cccnc5c5ncccc5c4nc3cc2c1 | B16-F10 | resazurin |  | added: light 523 nm, 100 J/cm2 | baseline: dark EC50 over light EC50 | phototoxicity index | 59 |
| O=C(N/N=C/c1cc[n+](CC2CC2)c2ccccc12)N/N=C/c1cc[n+](CC2CC2)c2ccccc12 | telomeric G4 DNA hybrid-2 | FRET melting |  | 1 µM, DNA 0.2 µM |  | ΔTm | 11.8 ± 0.8 °C |
| CNS(=O)(=O)Nc1nccc(Cc2c(C)c3ccc(Oc4ncccc4F)cc3oc2=O)c1F | MDA-MB-157 | cell viability |  | 7 days |  | IC50 | > 1000 nM |

For quick reference, copied from above:
| SMILES | tested on | assay | system | setting | scale | measurement | result |
| --- | --- | --- | --- | --- | --- | --- | --- |
| COC1CN([C@H]2CC[C@H]([C@@]3(C)Oc4c(Cl)cc(C(=O)NCc5c(SC)cc(C)[nH]c5=O)c(C)c4O3)CC2)C1 |  | RNA-seq, measured: SORBS1 | human, whole blood | dose not given, 24 h | baseline: pretreatment baseline | log2 fold change | 1.59 |
| O=C(N/N=C/c1cc[n+](CC2CC2)c2ccccc12)c1cncc(C(=O)N/N=C/c2cc[n+](CC3CC3)c3ccccc23)n1 | telomeric G4 DNA hybrid-2 | FRET melting |  | 1 µM, DNA 0.2 µM, added: duplex DNA competitor 10 µM |  | ΔTm | 23.5 ± 0.3 °C |
| N=C(N)NCCC[C@@H]1NC(=O)[C@H](CCCNC(=N)N)NC(=O)[C@@H](C(c2ccccc2)c2ccccc2)NC(=O)[C@H](Cc2c[nH]c3ccccc23)NC(=O)[C@@H](C(c2ccccc2)c2ccccc2)NC(=O)[C@@H](CCCNC(=N)N)NC(=O)[C@@H](CCCNC(=N)N)NC1=O | Aspergillus fumigatus |  | Af 293 | MIC, 12 h |  | reduction of viable cells | > 65% |
| CC(C)(C)c1cc(-c2ccc3cccnc3n2)nc(-c2ccc3cccnc3n2)c1.[Cl-].[Cl-].[Ru+2].c1cnc2c(c1)ccc1cccnc12 | B16-F10 |  |  | visible light 100 J/cm2 | baseline: dark EC50 over light EC50 | phototherapeutic index | 2 |
